Results pooled from the literature.
Every numbered part comes from another study and shows a few of its results, in no order.

Series 1 — method: protein-binding microarray; molecule type: double-stranded DNA, one strand shown; medium: in vitro; tested at: 250 nM; notes: 60-bp whole probe; added: salmon DNA 0.4 mg/ml; baseline: random background probes; reading: higher = stronger binding; all sequences stand within: GCCTAGCAC … GTCTTGATTCGCTTGACGCTGCTG
Target: Interferon regulatory factor 5, full length, phosphomimetic (IRF5, Homo sapiens, UniProt Q13568-2, residues 1-514, K96S/S451D/S453D/S456D/S462D)
Sequence | log fluorescence [z-score]
TCAGCTATGTTGTCCAGGACTGTGCTA | -0.169
TTAGGTGTCGGTTCCGGTTAGTGCTAG | 0.977
TTTGGTATCGGGTATCGGTTAGTGCTA | 8.22
TATGCTTTCTTTAACTCATTGTGCTAG | 1.28
TTGGATATCAGTTTCGATTAGTGCTAG | 9.79
TTTGGACACAGACACAGGCCGTGCTAG | -0.108
TCTGTTTTTGCTTTCCTTTAGTGCTAG | 2.32
TTAGATATCGGGTTTAGATTAGTGCTA | 2.21
AACCATTTTGGTTTTCTCTAGTGCTAG | 0.871

Series 2 — method: RNA Bind-n-Seq; molecule type: RNA; medium: in vitro; tested at: 365 nM; baseline: no-protein control; reading: higher = stronger binding
Target: RNA binding protein fox-1 homolog 2, RRM domain, GST-SBP tag (RBFOX2, Homo sapiens, UniProt O43251-10, residues 100-194)
Notes: natural RNA segment, single round, ends assumed
All sequences stand within: GGGAGUUCUACAGUCCGACGAUC … UGGAAUUCUCGGGUGCCAA
Construct (chain): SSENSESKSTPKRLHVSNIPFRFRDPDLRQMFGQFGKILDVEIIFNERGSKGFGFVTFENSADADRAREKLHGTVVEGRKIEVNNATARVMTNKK
Sequence | RBNS enrichment (R)
UCUGCCGUGGUCCUGCCGUGGUCCUGCCGUGGAGCCUGUCCCUACACAUGACCUUGGAGCCUCUUGGCCUUCAGAGCAGAGGCAAACCCACCACAGGGCAGCUGCGUUUU | 0.258
UGCUGACUCUUGGAGAGGACCAAAUUACUUUGUAGUAUUUCCCCCGUUUGUGUAAUGUCCUGAAACCUUGGAGAGGUUCCAGAAUACUUCUGUAUAUAGGGCACAGGUGA | 0.662
CUAAACCCCUGAUGCUGGUUAGGAACUUCUCACCCCAACACGUGUCUUAAGUAAGGCAGGGCAAGGCGGAGGACACUUGGCCAGAAGGAUAGAGACUGCUGGGUUCGUCC | 0.341
CCCAACCCCAUGCCUCACAGAGCUUCCUGUGGCUUCUCCAGCCUUUCUCCCUCACAUCAGGAGGUAGAUAGCUCUGAAAUGACAGCGCCACAGCCAUAGUGACUGCAUGA | 0.621
CAGAUGUGAAGCCUGGAGCUUUCCUGAUGAUGCUGGCCCUACAGUACCCCCAUGAGGGGAUUCCCUUCCUUCUGUUGCUGGUGUACUCUAGGACUUCAAAGUGUGUCUGG | 0.34
AUCAGAAGCUUUUAUUUCUUCUUAUUUUAAUUGUAUCUUAGUUGACUGAAUUUUGGUGAAGUUUUUUUUUUUUUAUGCUAUAUUUCCUGUGUAAUAUUUUGUAAAUCCUU | 2.23
GCCUCACACACCAUUUGUCCCAGACCAGUGGCAUUAGGCCAUAUAUUCUCUUCUAGUGUUUGCUUAAAAUAUGUGAAGUUUUUCUUGCUAUUUCAAUAACAAAUGGUGCU | 0.43
CCAGGCGCUUAAGGGACAGAUACAUCACAUCCUAAGUUUGGGAAAGGCCUUUGACCCAUGUCAUCUGAGCGUCUCCUCCAGUAGCUCUGAAAGCUGUGGACACCAAUGGC | 0.248

Series 3 — method: universal PBM; molecule type: double-stranded DNA, one strand shown; medium: in vitro; tested at: not given; reading: higher = stronger binding
Target: Sal-like protein 4, full length isoform B (SALL4, Homo sapiens, UniProt Q9UJQ4-2, residues 1-616)
Notes: 8-mer, flanks averaged, mean of replicates
Residues (chain): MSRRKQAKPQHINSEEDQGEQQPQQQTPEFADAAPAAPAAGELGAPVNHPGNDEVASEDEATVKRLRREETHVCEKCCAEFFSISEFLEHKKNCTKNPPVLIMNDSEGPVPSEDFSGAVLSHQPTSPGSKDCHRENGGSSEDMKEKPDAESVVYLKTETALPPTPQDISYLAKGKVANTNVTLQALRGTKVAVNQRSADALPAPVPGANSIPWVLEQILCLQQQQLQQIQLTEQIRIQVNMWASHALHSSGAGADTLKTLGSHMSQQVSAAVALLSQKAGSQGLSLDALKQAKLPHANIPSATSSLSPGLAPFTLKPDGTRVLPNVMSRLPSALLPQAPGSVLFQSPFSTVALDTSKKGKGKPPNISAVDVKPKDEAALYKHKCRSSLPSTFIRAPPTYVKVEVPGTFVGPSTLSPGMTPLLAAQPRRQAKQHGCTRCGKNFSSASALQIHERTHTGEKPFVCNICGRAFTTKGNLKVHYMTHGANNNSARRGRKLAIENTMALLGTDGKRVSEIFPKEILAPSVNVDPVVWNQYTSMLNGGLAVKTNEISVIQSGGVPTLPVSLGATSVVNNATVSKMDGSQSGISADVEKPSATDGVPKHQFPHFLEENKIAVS
Sequence | E-score
AGCGTGGA | -0.125
ACCATTAG | 0.154
ACTATCAG | -0.00782
AATGGAGG | -0.0208
TATAATGA | 0.323
CAGTCCGG | -0.298
GATGGGGC | -0.193
CGGTTTCA | -0.0611

Single results of other studies
Substance | target | test | system | conditions | scale | measurement | value
PhoQ, residues 284 288 289 292 302 303 SSLVEF | PhoP, residues 12 14 15 18 19 GQALL (Escherichia coli, UniProt P23836) | Sort-seq, item: YFP reporter | E. coli | PhoQ-PhoP variant library, added: 10 µM Mg2+ | baseline: high Mg2+ state, higher = stronger signaling | fold induction | 13.6

For quick reference, copied from above (series 3):
Sequence | E-score
AATGGAGG | -0.0208
TATAATGA | 0.323
